Results gathered from unrelated publications.
Lines come from different studies, so protocols differ. Values joined by “and” are separate records of one study, mostly repeats; a detail may differ. Numbers after ± are the reported error.

Compound | test | system | conditions | how to read | quantity | value
CC(C)[C@@H]1NC(=O)CNC(=O)[C@H](CC(N)=O)NC(=O)[C@H](CCCNC(=N)N)NC(=O)[C@H](Cc2ccc(O)cc2)NC(=O)[C@H](C(C)C)NC(=O)[C@@H](NC(=O)[C@@H](NC(=O)[C@H](CC(N)=O)NC(=O)[C@H](Cc2c[nH]c3ccccc23)NC(=O)[C@H](C)NC(=O)[C@H](Cc2ccccc2)NC(=O)CNC(=O)[C@H](CCCCN)NC(=O)[C@H](Cc2ccccc2)NC(=O)[C@H](Cc2ccccc2)NC(=O)[C@H](CCCCN)NC(=O)OCC2c3ccccc3-c3ccccc32)C(C)C)CSSC[C@@H](C(=O)N[C@@H](Cc2c[nH]cn2)C(=O)N[C@@H](CCCNC(=N)N)C(=O)N[C@@H](CCCNC(=N)N)C(=O)N[C@@H](C)C(=O)N[C@@H](CC(N)=O)C(N)=O)NC(=O)[C@H](C(C)C)NC(=O)[C@H](CCCNC(=N)N)NC1=O | HPLC | mouse kidney homogenate 50 mg/mL | 6.00 h, 37 °C |  | peptide remaining | 58.2% and 62.1% and 54.4%
CC[C@H](C)[C@H](NC(=O)[C@H](CCCCN)NC(=O)CNC(=O)[C@H](CC(C)C)NC(=O)[C@H](Cc1ccccc1)NC(=O)[C@H](CCCCN)NC(=O)[C@H](CO)NC(=O)[C@H](Cc1ccccc1)NC(=O)[C@H](Cc1c[nH]c2ccccc12)NC(=O)[C@H](CCC(N)=O)NC(=O)[C@@H](NC(=O)[C@H](Cc1ccccc1)NC(=O)CCCCCNC(=O)CN1CCN(CC(=O)O)CCN(CC(=O)O)CCN(CC(=O)O)CC1)C(C)C)C(=O)N[C@@H](CCC(=O)O)C(=O)N1CCC[C@H]1C(=O)N[C@@H](CC(=O)O)C(=O)N[C@H](C(=O)N[C@@H](CO)C(=O)N[C@@H](CCC(N)=O)C(=O)N[C@H](C(=O)N[C@@H](CCC(N)=O)C(=O)N[C@@H](CC(=O)O)C(=O)N1CCC[C@H]1C(=O)N[C@@H](CC(N)=O)C(=O)N[C@@H](CC(=O)O)C(=O)N[C@@H](CCC(N)=O)C(=O)N[C@@H](Cc1ccc(O)cc1)C(=O)N[C@@H](CCC(=O)O)C(=O)N1CCC[C@H]1C(=O)N[C@@H](Cc1ccccc1)C(=O)O)C(C)C)C(C)C [copper-64 labelled] |  | BALB/c mice, male, CT26 tumour-bearing, liver | 2 h, anti-PD1 plus anti-CTLA4 treated |  | tissue uptake | 8.15 ± 1.4 %ID/g
CN1Cc2cc(Cl)ccc2-n2c(nnc2C2CCN(c3cccc([18F])n3)CC2)C1 |  | C57BL/6 mouse male, thymus | intravenous, 3.7 MBq, 30 min |  | tissue uptake | 7.23 ± 3.13 %ID/g
CC(C)C[C@@H](NC(=O)[C@@H](CCCCN)NC(=O)CNC(=O)CNC(=O)[C@@H]1CSSC[C@H](N)C(=O)NCC(=O)N[C@@H](CCCNC(=N)N)C(=O)N[C@@H](CCCNC(=N)N)C(=O)N[C@@H](C)C(=O)NCC(=O)NCC(=O)N[C@@H](CO)C(=O)N1)C(=O)N[C@H](C)C(=O)N[C@H](CCCCN)C(=O)N[C@H](CC(C)C)C(=O)N[C@H](C)C(=O)N[C@H](CCCCN)C(=O)N[C@H](CCCCN)C(=O)N[C@H](CC(C)C)C(=O)N[C@H](C)C(=O)N[C@H](CCCCN)C(=O)N[C@H](CC(C)C)C(=O)N[C@H](C)C(=O)N[C@H](CCCCN)C(=O)O |  | mouse | intravenous, 15.0 mg/kg |  | elimination rate constant | 0.47 ± 0.12 h⁻¹
O=C1NC2(CC2)COc2ncc(F)cc2[C@H]2COCCN2c2ccn3ncc1c3n2 |  | Sprague-Dawley rat, male, thymus | oral, 5 mg/kg/day, 4 weeks dosing, end of recovery |  | organ-to-body weight ratio | 0.092 ± 0.021%
N#[11C]c1ccc(-c2csc(NN=C3CCCC3)n2)cc1 |  | C57BL/6 mice, male, brain | intravenous, 3 MBq, 15 min |  | radioactivity uptake | 0.65 ± 0.01 %ID/g
CCCCC[C@@H]1NC(=O)[C@@H](C)N(C)C(=O)[C@H](CCCCC)NC(=O)[C@@H](C)N(C)C(=O)[C@H](CCCCC)NC(=O)[C@@H](C)N(C)C(=O)[C@H](CCCCC)NC(=O)[C@@H](C)N(C)C1=O | PAMPA, HPLC-UV |  | 500 µM, pH 7.4 |  | log Papp | -5.31 ± 0.04
Cc1ccccc1-c1ccc(-c2nc(-c3ccc(CN(C)CCCC(=O)O)c([18F])c3)no2)cc1C(F)(F)F |  | rat, kidney | 2 h |  | tracer uptake | 0.9 %ID/g
N=C(N)NCCC[C@H](NC(=O)[C@H](CCCNC(=N)N)NC(=O)[C@H](CCCNC(=N)N)NC(=O)[C@H](CCC(N)=O)NC(=O)[C@H](CCCNC(=N)N)NC(=O)[C@H](CCCNC(=N)N)NC(=O)[C@H](CCCCN)NC(=O)[C@H](CCCCN)NC(=O)[C@H](CCCNC(=N)N)NC(=O)CNC(=O)[C@H](Cc1ccc(O)cc1)NC(=O)[C@H](Cc1ccccc1)NC(=O)[C@H](Cc1ccccc1)NC(=O)[C@H](Cc1ccccc1)NC(=O)Cc1ccc2ccccc2c1)C(=O)O |  | C57BL/6 mice | intraperitoneal, 10 mg/kg, 0.5 h | direction not given | health score | 5
CC(=O)c1c(C)c2cnc(Nc3ccc(N4CCNCC4)cn3)nc2n(C2CCCC2)c1=O |  | C57BL/6 mice, blood | 25 mg/kg, P25, dosed P10 to P24 |  | blood urea nitrogen | 18.2 ± 5.8 mg/dL
COc1cccc(O)c1C(=O)/C=C/c1ccc2cc(N3CCCC3)ccc2c1 |  | C57BL/6J mice, liver | intraperitoneal, 50 mg/kg single, 4 h |  | tissue concentration | 54 ng/g
O=C1CC[C@H](N2Cc3cc(N4CCNCC4)ccc3C2=O)C(=O)N1 |  | male Sprague-Dawley rat, pooled plasma | oral, 20 mg/kg |  | share of plasma AUC(0-72h) | 15%
COc1nc(CC=C(C)CC=CC(C)=CC(C)C(OC2OC(CO)C(O)C(O)C2O)C(C)=CCO)c(C)c(O)c1OC (stereo not shown) |  | male C57BL/6 mouse, plasma | intravenous, 2 mg/kg |  | MRT(0-t) | 20.7 min

A few entries again:
Compound | test | system | conditions | how to read | quantity | value
COc1cccc(O)c1C(=O)/C=C/c1ccc2cc(N3CCCC3)ccc2c1 |  | C57BL/6J mice, liver | intraperitoneal, 50 mg/kg single, 4 h |  | tissue concentration | 54 ng/g
O=C1CC[C@H](N2Cc3cc(N4CCNCC4)ccc3C2=O)C(=O)N1 |  | male Sprague-Dawley rat, pooled plasma | oral, 20 mg/kg |  | share of plasma AUC(0-72h) | 15%
